# Assay results pooled from the literature.
# Lines come from different studies, so protocols differ. ± gives the spread as reported.
# AHR: Aryl hydrocarbon receptor (AHR, Delphinapterus leucas, UniProt Q95LD9)
# Sequence of UniProt Q95LD9 (whole entry, looked up): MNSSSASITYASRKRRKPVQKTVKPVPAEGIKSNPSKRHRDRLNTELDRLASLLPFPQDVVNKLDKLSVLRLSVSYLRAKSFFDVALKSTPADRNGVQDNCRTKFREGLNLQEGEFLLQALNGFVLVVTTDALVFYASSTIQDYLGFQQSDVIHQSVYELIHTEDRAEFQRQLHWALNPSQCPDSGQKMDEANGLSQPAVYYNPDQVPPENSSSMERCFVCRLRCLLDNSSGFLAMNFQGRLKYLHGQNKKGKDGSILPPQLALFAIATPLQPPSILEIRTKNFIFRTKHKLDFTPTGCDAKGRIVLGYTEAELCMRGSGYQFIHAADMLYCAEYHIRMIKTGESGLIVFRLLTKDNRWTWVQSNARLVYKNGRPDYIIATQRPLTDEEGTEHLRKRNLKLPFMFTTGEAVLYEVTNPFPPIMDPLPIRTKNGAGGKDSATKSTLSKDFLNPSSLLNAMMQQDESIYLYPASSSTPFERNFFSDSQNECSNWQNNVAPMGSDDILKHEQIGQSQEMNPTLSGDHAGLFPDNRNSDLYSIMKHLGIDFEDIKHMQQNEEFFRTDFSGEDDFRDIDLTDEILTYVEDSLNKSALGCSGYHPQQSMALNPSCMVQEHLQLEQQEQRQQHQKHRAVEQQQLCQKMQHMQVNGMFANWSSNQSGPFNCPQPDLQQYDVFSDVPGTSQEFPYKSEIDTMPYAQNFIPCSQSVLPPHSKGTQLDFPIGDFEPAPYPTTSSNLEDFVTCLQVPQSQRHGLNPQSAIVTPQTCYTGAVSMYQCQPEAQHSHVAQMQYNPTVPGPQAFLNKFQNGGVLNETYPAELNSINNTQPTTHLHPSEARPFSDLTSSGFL
# CYP2A6: Cytochrome P450 2A6 (CYP2A6, Homo sapiens, UniProt P11509)
# Sequence of UniProt P11509 (whole entry, looked up): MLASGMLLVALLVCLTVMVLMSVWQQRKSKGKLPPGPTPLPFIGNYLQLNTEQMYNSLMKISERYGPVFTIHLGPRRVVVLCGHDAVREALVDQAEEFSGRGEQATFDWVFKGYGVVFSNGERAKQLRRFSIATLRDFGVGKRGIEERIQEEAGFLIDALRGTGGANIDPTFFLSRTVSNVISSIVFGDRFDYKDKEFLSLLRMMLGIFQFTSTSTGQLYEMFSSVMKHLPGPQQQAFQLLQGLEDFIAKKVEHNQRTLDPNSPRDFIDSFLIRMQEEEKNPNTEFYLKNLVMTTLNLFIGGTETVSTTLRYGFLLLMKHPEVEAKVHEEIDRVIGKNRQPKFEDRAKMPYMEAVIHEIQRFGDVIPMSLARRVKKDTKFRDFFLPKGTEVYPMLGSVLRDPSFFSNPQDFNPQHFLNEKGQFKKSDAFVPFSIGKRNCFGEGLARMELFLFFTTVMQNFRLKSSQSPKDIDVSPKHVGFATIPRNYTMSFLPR
# CYP2C9: Cytochrome P450 2C9 (CYP2C9, Homo sapiens, UniProt P11712)
# Sequence of UniProt P11712 (whole entry, looked up): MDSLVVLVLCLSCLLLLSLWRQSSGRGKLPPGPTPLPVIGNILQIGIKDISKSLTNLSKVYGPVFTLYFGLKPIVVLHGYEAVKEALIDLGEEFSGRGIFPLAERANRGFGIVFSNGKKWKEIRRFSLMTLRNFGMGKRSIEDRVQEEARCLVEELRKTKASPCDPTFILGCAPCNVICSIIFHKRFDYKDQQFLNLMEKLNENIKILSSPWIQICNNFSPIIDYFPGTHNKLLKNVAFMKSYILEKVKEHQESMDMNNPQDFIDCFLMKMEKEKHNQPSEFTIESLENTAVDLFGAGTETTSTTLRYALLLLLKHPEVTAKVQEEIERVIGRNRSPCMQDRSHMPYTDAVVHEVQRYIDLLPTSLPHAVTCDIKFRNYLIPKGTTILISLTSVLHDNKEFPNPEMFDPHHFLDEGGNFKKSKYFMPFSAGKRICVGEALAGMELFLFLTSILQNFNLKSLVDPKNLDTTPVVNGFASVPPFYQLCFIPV
# NR1I2: Nuclear receptor subfamily 1 group I member 2 (NR1I2, Homo sapiens, UniProt O75469)
# Sequence of UniProt O75469 (whole entry, looked up): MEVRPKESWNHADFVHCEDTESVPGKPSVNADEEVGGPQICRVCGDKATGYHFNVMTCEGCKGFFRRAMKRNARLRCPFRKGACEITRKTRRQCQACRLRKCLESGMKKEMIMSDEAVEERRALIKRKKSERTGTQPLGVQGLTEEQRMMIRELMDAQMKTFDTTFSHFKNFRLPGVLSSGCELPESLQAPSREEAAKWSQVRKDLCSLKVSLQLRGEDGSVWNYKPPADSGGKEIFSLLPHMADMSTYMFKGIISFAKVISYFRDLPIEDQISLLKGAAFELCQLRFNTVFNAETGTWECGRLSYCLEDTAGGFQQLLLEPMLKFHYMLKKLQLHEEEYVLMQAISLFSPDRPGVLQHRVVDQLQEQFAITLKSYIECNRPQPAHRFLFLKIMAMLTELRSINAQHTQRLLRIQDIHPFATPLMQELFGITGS
# ABCB1: ATP-dependent translocase ABCB1 (ABCB1, Homo sapiens, UniProt P08183)
# Sequence of UniProt P08183 (whole entry, looked up): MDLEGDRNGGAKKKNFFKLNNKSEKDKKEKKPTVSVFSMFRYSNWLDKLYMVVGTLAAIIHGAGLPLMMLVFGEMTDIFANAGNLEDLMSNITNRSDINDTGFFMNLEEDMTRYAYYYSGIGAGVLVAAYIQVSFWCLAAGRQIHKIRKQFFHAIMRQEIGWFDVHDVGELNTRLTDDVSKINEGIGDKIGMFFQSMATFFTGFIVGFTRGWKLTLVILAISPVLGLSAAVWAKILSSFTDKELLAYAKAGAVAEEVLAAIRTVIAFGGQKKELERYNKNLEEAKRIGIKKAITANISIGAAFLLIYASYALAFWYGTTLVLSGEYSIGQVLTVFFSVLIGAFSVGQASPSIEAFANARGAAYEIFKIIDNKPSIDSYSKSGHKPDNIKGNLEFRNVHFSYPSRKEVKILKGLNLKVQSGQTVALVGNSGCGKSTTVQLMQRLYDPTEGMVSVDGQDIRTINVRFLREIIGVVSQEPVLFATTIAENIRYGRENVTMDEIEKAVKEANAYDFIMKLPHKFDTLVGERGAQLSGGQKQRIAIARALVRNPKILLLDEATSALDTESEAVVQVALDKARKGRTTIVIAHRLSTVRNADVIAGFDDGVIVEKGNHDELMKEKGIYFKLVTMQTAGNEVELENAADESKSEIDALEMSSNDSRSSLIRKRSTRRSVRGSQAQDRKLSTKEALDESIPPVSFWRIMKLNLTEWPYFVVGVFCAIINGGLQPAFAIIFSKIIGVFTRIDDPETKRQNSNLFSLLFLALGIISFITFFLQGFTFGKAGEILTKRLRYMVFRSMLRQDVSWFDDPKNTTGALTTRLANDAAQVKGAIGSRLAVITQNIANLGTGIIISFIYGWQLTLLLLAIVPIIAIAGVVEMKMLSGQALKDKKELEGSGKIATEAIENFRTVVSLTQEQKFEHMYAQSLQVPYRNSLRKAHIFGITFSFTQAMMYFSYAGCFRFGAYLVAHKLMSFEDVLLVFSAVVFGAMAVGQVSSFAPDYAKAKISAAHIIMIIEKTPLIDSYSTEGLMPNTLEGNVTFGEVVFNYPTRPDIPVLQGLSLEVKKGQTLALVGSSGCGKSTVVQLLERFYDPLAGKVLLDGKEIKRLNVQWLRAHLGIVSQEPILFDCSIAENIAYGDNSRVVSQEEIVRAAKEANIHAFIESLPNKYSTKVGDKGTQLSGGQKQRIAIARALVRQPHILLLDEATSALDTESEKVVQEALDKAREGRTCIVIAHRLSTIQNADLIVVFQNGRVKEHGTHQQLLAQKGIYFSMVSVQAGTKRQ
# Sequence of UniProt P08682 (whole entry, looked up): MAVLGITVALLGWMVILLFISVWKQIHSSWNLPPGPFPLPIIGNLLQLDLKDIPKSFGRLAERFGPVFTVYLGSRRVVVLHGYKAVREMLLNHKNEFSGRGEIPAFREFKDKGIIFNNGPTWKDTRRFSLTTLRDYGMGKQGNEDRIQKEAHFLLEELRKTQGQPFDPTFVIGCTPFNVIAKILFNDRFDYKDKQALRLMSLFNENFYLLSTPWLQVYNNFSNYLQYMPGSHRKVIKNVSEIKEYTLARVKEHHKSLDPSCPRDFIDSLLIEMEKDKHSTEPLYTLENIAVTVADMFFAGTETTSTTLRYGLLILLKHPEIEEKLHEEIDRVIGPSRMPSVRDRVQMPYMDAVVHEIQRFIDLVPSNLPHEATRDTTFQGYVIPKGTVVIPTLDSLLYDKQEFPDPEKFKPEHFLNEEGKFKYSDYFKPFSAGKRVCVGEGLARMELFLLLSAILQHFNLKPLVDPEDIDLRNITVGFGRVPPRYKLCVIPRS
# Sequence of UniProt Q9UNQ0 (whole entry, looked up): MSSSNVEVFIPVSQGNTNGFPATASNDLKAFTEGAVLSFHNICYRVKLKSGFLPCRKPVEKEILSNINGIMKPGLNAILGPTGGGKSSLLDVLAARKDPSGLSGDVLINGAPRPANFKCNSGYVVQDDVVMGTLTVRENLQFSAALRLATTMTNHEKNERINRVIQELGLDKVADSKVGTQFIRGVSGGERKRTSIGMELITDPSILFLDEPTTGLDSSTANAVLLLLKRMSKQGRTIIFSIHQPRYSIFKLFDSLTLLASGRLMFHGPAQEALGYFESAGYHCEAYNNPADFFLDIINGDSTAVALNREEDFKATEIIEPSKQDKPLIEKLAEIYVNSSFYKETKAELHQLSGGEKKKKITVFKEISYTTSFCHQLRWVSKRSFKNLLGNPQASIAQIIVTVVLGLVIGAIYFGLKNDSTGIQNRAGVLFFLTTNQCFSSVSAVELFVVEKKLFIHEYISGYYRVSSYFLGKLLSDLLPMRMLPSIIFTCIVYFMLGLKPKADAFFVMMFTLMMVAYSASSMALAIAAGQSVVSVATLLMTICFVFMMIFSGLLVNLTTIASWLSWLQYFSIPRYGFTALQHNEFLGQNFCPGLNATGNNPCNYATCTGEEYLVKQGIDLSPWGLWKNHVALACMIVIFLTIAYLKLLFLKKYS
# Sequence of UniProt P08311 (whole entry, looked up): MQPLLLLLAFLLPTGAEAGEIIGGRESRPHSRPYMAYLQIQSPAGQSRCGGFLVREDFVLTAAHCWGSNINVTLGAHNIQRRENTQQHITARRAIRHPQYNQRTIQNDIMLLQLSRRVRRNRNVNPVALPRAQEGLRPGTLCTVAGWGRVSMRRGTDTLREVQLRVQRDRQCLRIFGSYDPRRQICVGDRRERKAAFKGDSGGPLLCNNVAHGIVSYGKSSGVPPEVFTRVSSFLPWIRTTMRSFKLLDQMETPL
Substance,target,assay,system,conditions,how to read,quantity,value
N#Cc1ccnc(N2C(=O)CC[C@H]2C(=O)N(c2cncc(F)c2)[C@H](C(=O)NC2CC(F)(F)C2)c2ccccc2Cl)c1,"Solute carrier family 22 member 2 (SLC22A2, Homo sapiens, UniProt O15244)","metformin uptake, inhibitor",HEK293 transfected with SLC22A2,"up to 65 µM, 2 min, with: [14C]-metformin",,inhibition,< 50%
Clc1ccc(-c2cc(Cl)c(Cl)cc2Cl)cc1Cl,AHR,"binding, competitor",,"in vitro expressed receptor, with: [3H]TCDD",,Ki,1.44 µM
Oc1ccc(/C=C/c2cc(O)cc(O)c2)cc1,UGT1A10 human,"4'-O-glucuronide formation, substrate",,pH 7.4,,Km,300 ± 54 µM
C#CCOc1ccc2ccccc2c1,CYP2A6,"binding, absorbance",,pH 7.4,,Kd,33 µM
Clc1ccc(-c2ccc(Cl)cc2Cl)cc1,PXR (polar bear),"reporter gene, agonist, luciferase",COS-7,24 h,reference: DMSO,fold induction,1.1 ± 0.1 fold
CC(=O)CC(c1ccccc1)c1c(O)c2cccc(O)c2oc1=O (stereo not drawn),CYP2C9,"enzyme activity, inhibitor",,pH 7.4,,Ki,21 µM
Clc1cc(-c2cc(Cl)c(Cl)c(Cl)c2)cc(Cl)c1Cl,AHR,"binding, competitor",,"in vitro expressed receptor, with: [3H]TCDD",,Ki,0.0075 µM
CC(C)C[C@H](NC(=O)CNC(=O)[C@H](CC(C)C)NC(=O)[C@@H]1CCCN1C(=O)Cc1ccc2ccc3cccc4ccc1c2c34)C(=O)N[C@@H](CCCNC(=N)N)C(=O)N[C@@H](CO)C(=O)N[C@@H](CCCCN)C(=O)O,"Matrix metalloproteinase-9 (MMP9, Homo sapiens, UniProt P14780)","protease stability, substrate, HPLC",,"500 µM, 72 h, pH 7.5, 37 °C, with: MMP9 10 U",,residual substrate,not detected
CSCC[C@H](NC=O)C(=O)N[C@@H](CC(C)C)C(=O)N[C@@H](Cc1ccccc1)C(=O)O,"Solute carrier family 15 member 1 (Slc15a1, Mus musculus, UniProt Q9JIP7)",substrate,"wild-type mouse, jejunum, in situ perfusion","0.1 µM to 7.5 mM, pH 6.5, intestinal wall concentration, with: phenylalanine 100 mM",,maximal transport rate,0.73 ± 0.07 nmol/cm²/s
Oc1cc(O)cc(/C=C/c2ccc(O)c(O)c2)c1,UGT1A10 human,"4'-O-glucuronide formation, substrate",,pH 7.4,,Km,14.1 ± 5.7 µM
CN(C)C(=O)C(CCN1CCC(O)(c2ccc(Cl)cc2)CC1)(c1ccccc1)c1ccccc1,"P-glycoprotein (Canis lupus familiaris, UniProt C0KKU9)","rhodamine efflux, inhibitor",MDCK-MDR1 cells,"1 µM, with: rhodamine 123 1 µM",reference: rhodamine alone,rhodamine fluorescence ratio,10.3
C#CCOc1ccc(-c2ccc(OCC#C)cc2)cc1,"Cytochrome P450 2A13 (Homo sapiens, UniProt Q16696)","binding, absorbance",,pH 7.4,,Kd,6.5 µM
C[C@@H]1CC[C@]2(C(=O)O)CC[C@]3(C)C(=CC[C@@H]4[C@@]5(C)CC[C@H](O)[C@@](C)(CO)[C@@H]5CC[C@]43C)[C@@H]2[C@]1(C)O,"CYP3A4/5, human",measured: 1'-hydroxymidazolam,human liver microsomes,"20 µM, with: midazolam 1.535 µM",,remaining activity,86.2%
Clc1cc(Cl)c(-c2cc(Cl)c(Cl)cc2Cl)cc1Cl,NR1I2,"reporter gene, agonist, luciferase",COS-7,24 h,reference: DMSO,fold induction,3.2 ± 0.3 fold
C1CO1,"glutathione S-transferase, mouse",substrate,"B6C3F1 mice, liver cytosol",,,Km,≥ 9000 µM
Brc1ccc(Oc2ccc(Br)cc2Br)cc1,NR1I2,"reporter gene, agonist, luciferase",COS-7,24 h,reference: DMSO,fold induction,3.1 ± 0.5 fold
CC[N+]1=C(C=CC=CC=C2N(CCCCCC(=O)NCCN3C(=O)CC(SC[C@@H](NC(=O)[C@@H](CCCNC(=N)N)NC(=O)[C@@H](CCCNC(=N)N)NC(=O)[C@@H](CCCNC(=N)N)NC(=O)[C@@H](CCCNC(=N)N)NC(=O)[C@@H](CCCNC(=N)N)NC(=O)[C@@H](CCCNC(=N)N)NC(=O)[C@@H](CCCNC(=N)N)NC(=O)[C@@H](CCCNC(=N)N)NC(=O)[C@@H](CCCNC(=N)N)NC(=O)[C@H](CC(C)C)NC(=O)[C@H](CCCCN)NC(=O)[C@H](CC(C)C)NC(=O)[C@H](CCC(N)=O)NC(=O)[C@H](CC(C)C)NC(=O)[C@H](CCCNC(=N)N)NC(=O)CCCCCNC(=O)[C@@H](CCC(=O)O)NC(=O)[C@@H](CCC(=O)O)NC(=O)[C@@H](CCC(=O)O)NC(=O)[C@@H](CCC(=O)O)NC(=O)[C@@H](CCC(=O)O)NC(=O)[C@@H](CCC(=O)O)NC(=O)[C@@H](CCC(=O)O)NC(=O)[C@@H](CCC(=O)O)NC(=O)[C@H](N)CCC(=O)O)C(N)=O)C3=O)c3ccc(S(=O)(=O)O)cc3C2(C)C)C(C)(C)c2cc(S(=O)(=O)[O-])ccc21 (stereo partly drawn),"Cathepsin G (CTSG, Homo sapiens, UniProt P08311)",substrate,,"5 µM, 2 h",,cleavage,60%
COC(=O)c1ccncc1,"Cytochrome P450 2E1 (Cyp2e1, Rattus norvegicus, UniProt P05182)","enzyme activity, inhibitor",liver microsomes,"10 min, 37 °C, with: chlorzoxazone",,Ki,2.5 µM
CSc1nc2cc(Cl)c(Oc3cccc(Cl)c3Cl)cc2[nH]1,CYP2C9,inhibitor,human liver microsomes,"2 µM, pH 7.4, with: diclofenac",,inhibition,74.4%
CC(=O)CC(c1ccccc1)c1c(O)c2cc(O)ccc2oc1=O (stereo not drawn),CYP2C9,"enzyme activity, inhibitor",,pH 7.4,,Ki,> 170 µM
O=C(O)COc1ccc(C(=O)c2cccs2)c(Cl)c1Cl,CYP2C8 human,"M4 formation from THC, inhibitor",human liver microsomes,"50 µM, six individual donors, with: THC 2 µM",,inhibition,no effect
Clc1ccc(-c2ccc(Cl)c(Cl)c2Cl)cc1Cl,AHR,"binding, competitor",,"in vitro expressed receptor, with: [3H]TCDD",,Ki,0.567 µM
Cc1ncccc1NC(=O)c1ccc2c(c1)CC[C@@H]1C[C@@](O)(C(F)(F)F)CC[C@@]21Cc1ccccc1,"CYP3A4/5, human","time-dependent inhibitor, measured: 1'-hydroxymidazolam",pooled human liver microsomes,"saturation not achieved, with: midazolam 23 µM",,Ki,3 µM
C#CCOc1ccc(-c2ccccc2)cc1,CYP2A6,"binding, absorbance",,pH 7.4,,Kd,0.75 µM
Clc1ccc(-c2cc(Cl)c(Cl)c(Cl)c2Cl)c(Cl)c1Cl,PXR (polar bear),"reporter gene, agonist, luciferase",COS-7,24 h,reference: DMSO,fold induction,1.5 ± 0.3 fold
COc1ccc(CCN2CCN(c3ccccc3OC)CC2)cc1OC.Cl,"Cytochrome P450 2C19 (CYP2C19, Homo sapiens, UniProt P33261)",,purified human isozyme,"0.5 µM, 37 °C, with: NADPH 2 mM",,half-life,0.333 h
Clc1cc(Cl)c(-c2c(Cl)cc(Cl)c(Cl)c2Cl)c(Cl)c1,PXR (polar bear),"reporter gene, agonist, luciferase",COS-7,24 h,reference: DMSO,fold induction,1.8 ± 0.6 fold
CCC#Cc1ccc(-c2ccccc2)cc1,CYP2A6,"binding, absorbance",,pH 7.4,,Kd,12 µM
CC(C)[C@@H]1NC(=O)c2csc(n2)[C@H](C(C)C)NC(=O)c2csc(n2)[C@H](C(C)C)NC(=O)c2csc(n2)[C@H](C(C)C)NC(=O)c2csc1n2,ABCB1,"efflux transport, inhibitor, flow cytometry","HeLa, transduced with BacMam P-gp","10 µM, 10 min, with: calcein-AM 0.5 µM",reference: tariquidar 1 µM,inhibition,62%
C[C@@H]1CC[C@H]2[C@@H](C)C(=O)O[C@@H]3O[C@@]4(C)CC[C@@H]1[C@]32OO4,ABCB1,"calcein accumulation, inhibitor, flow cytometry",CEM/ADR5000,"concentration not given, 30 min",reference: untreated,maximum effect,114 ± 2.85%
C#CCOCc1cccc2ccccc12,CYP2A6,"binding, absorbance",,pH 7.4,,Kd,9.3 µM
CC[C@H](C)[C@H](NC(=O)[C@H](CCCCN)NC(=O)[C@H](CCC(=O)O)NC(=O)[C@H](CCCCN)NC(=O)[C@H](CO)NC(=O)[C@H](CCCCN)NC(=O)[C@H](CCCNC(=N)N)NC(=O)[C@H](Cc1ccccc1)NC(=O)[C@H](Cc1ccccc1)NC(=O)[C@H](CC(=O)O)NC(=O)CNC(=O)[C@H](CC(C)C)NC(=O)[C@@H](N)CC(C)C)C(=O)NCC(=O)N[C@@H](CCCCN)C(=O)N[C@@H](CCC(=O)O)C(=O)N[C@@H](Cc1ccccc1)C(=O)N[C@@H](CCCCN)C(=O)N[C@@H](CCCNC(=N)N)C(=O)N[C@H](C(=O)N[C@H](C(=O)N[C@@H](CCC(N)=O)C(=O)N[C@@H](CCCNC(=N)N)C(=O)N[C@H](C(=O)N[C@@H](CCCCN)C(=O)N[C@@H](CC(=O)O)C(=O)N[C@@H](Cc1ccccc1)C(=O)N[C@@H](CC(C)C)C(=O)N[C@@H](CCCNC(=N)N)C(=O)N[C@@H](CC(N)=O)C(=O)N[C@@H](CC(C)C)C(=O)N[C@H](C(=O)N1CCC[C@H]1C(=O)N[C@@H](CCCNC(=N)N)C(=O)N[C@H](C(=O)N[C@@H](CCC(=O)O)C(=O)N[C@@H](CO)C(=O)O)[C@@H](C)O)C(C)C)[C@@H](C)CC)C(C)C)[C@@H](C)CC,Escherichia coli OmpT,substrate,"E. coli BL21 expressing ompT, PBS","2 µg/µL, room temperature",,time to cleavage,≤ 15 min
C=C(C)[C@@H]1CCC(C)=C[C@H]1c1c(O)cc(CCCCC)cc1O,CYP2A6,"nicotine C-oxidation to cotinine, inhibitor",microsomes of overexpressing HEK293 cells,"1 µM, 30 min, pH 7.4, with: nicotine 100 µM",,inhibition,55%
CC(C)c1nc(N(C)S(C)(=O)=O)nc(-c2ccc(F)cc2)c1/C=C/[C@@H](O)C[C@@H](O)CC(=O)O,OATP1B1/1B3,,"human, plasma","oral, 10 mg single dose, with: dabrafenib at dosing initiation",reference: compound alone,Cmax increase,94%
Brc1ccc(Oc2ccc(Br)cc2Br)c(Br)c1,PXR (polar bear),"reporter gene, agonist, luciferase",COS-7,24 h,reference: DMSO,fold induction,1.5 ± 0.5 fold
CCC[S+]([O-])c1ccc2[nH]c(NC(=O)OC)nc2c1 (stereo not drawn),CYP2C9,inhibitor,human liver microsomes,"2 µM, pH 7.4, with: diclofenac",,inhibition,6.08%
C#CCOc1ccccc1-c1ccccc1OCC#C,CYP2A6,"binding, absorbance",,pH 7.4,,Kd,32 µM
c1cn[nH]c1,"CYP2E1 (Oryctolagus cuniculus, UniProt P08682)",inhibitor,,"pH 7.4, 37 °C, catalytic site, with: 4-nitrophenol",,Ki,140 µM
Clc1ccc(-c2cc(Cl)c(Cl)cc2Cl)cc1Cl,PXR (polar bear),"reporter gene, agonist, luciferase",COS-7,24 h,reference: DMSO,fold induction,1.4 ± 0.1 fold
C#CCOCCc1cccc2ccccc12,CYP2A6,"binding, absorbance",,pH 7.4,,Kd,11.5 µM
calcein AM,ABCB1,"ATPase activity, substrate",membranes,with: ATP 1 mM,,Vmax,46 ± 2 nmol Pi/min/mg protein
CC(C)C[C@@H]1NC(=O)[C@H](C)NC(=O)[C@H](CCCCN)NC(=O)[C@H](C)NC(=O)[C@@H](NC(=O)CNC(=O)[C@H](CCCCN)NC(=O)[C@H](CC(C)C)NC(=O)[C@H](CC(C)C)NC(=O)[C@H](CC(=O)O)NC(=O)[C@H](CCCCN)NC(=O)[C@H](Cc2ccccc2)NC(=O)CN)CSCc2ccc(cc2)-c2ccc(cc2)CSC[C@@H](C(=O)N[C@H](C(=O)N[C@@H](CC(C)C)C(=O)N[C@@H](Cc2ccccc2)C(N)=O)C(C)C)NC(=O)[C@H](CCCCN)NC(=O)[C@H](C(C)C)NC1=O,trypsin,"proteolytic stability, substrate, HPLC",,"0.025 nM, pH 7.4, with: trypsin 0.5 ng/µL",,half-life,3.08 h
Clc1ccc(Cl)c(-c2cc(Cl)c(Cl)cc2Cl)c1,NR1I2,"reporter gene, agonist, luciferase",COS-7,24 h,reference: DMSO,fold induction,3.3 ± 5 fold
Nc1ccncc1[18F],"Cytochrome P450 2E1 (Cyp2e1, Mus musculus, UniProt Q05421)",,"awake mice, plasma","intravenous, 35 min, sesame oil vehicle pretreatment",,parent fraction,15 ± 1.5%
N#Cc1ccc(N2N=C3c4ccc(C(=O)N5CCC(O)CC5)nc4CC[C@@H]3[C@@H]2C2CCCC2)cc1Cl,"Broad substrate specificity ATP-binding cassette transporter ABCG2 (ABCG2, Homo sapiens, UniProt Q9UNQ0)","transporter uptake, inhibitor",,,,IC50,1.32 µM
